Results from different studies.
Each line is one published result; not all experiments were run side by side. Values joined by “and” are separate records of one study, mostly repeats; a detail may differ. ± gives the spread as reported.
POLB: DNA polymerase beta (POLB, Homo sapiens, UniProt P06746)
Eif4e: Eukaryotic translation initiation factor 4E (Eif4e, Mus musculus, UniProt P63073)
Sequence of UniProt P63073 (whole entry, looked up): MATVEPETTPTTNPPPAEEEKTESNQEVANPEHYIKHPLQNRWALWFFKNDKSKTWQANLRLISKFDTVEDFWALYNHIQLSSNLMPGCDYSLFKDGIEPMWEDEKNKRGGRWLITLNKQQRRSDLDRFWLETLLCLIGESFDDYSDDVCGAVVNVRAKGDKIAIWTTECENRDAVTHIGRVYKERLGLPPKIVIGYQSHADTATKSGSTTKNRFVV
Sequence of UniProt P20248 (whole entry, looked up): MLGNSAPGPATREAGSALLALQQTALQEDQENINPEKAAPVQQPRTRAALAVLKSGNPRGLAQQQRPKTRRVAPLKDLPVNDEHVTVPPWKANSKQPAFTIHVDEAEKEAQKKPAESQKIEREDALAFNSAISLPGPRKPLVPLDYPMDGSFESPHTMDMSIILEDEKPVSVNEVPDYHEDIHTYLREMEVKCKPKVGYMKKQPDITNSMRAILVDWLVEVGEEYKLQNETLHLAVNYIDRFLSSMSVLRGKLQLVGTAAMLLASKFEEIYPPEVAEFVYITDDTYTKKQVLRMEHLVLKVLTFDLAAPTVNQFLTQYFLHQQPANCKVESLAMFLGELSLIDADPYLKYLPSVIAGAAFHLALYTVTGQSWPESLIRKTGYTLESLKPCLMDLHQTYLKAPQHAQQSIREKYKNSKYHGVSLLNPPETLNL
Sequence of UniProt Q0GXS4 (whole entry, unmodified, looked up): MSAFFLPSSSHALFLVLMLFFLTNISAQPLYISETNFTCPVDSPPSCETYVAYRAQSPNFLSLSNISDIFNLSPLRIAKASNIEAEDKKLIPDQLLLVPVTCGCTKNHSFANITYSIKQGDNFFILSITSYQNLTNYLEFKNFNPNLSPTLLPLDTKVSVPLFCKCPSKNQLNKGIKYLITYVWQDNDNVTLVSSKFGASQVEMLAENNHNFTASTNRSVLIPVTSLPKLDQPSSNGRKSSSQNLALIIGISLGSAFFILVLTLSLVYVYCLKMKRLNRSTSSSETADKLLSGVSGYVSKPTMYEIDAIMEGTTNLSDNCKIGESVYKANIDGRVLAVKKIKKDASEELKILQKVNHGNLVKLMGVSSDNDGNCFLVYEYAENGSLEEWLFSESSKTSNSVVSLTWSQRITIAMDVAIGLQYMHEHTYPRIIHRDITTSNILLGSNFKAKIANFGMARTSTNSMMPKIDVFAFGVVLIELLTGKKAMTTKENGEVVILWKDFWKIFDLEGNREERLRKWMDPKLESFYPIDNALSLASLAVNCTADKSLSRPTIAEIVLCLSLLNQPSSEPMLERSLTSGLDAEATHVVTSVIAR
Sequence of UniProt Q9BUZ4 (whole entry, looked up): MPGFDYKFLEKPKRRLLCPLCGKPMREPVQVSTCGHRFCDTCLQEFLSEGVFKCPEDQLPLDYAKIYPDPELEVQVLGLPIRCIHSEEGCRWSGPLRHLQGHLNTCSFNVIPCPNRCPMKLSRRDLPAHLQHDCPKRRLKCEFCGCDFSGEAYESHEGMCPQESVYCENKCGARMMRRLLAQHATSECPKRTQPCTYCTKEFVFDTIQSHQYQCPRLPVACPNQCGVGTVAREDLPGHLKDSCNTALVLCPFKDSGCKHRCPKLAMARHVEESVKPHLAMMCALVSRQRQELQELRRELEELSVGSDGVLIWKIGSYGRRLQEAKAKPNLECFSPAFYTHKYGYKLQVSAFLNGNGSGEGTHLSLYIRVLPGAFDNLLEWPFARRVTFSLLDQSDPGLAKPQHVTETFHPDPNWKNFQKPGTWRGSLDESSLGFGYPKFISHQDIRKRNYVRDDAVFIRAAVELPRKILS
Sequence of UniProt P42768 (whole entry, looked up): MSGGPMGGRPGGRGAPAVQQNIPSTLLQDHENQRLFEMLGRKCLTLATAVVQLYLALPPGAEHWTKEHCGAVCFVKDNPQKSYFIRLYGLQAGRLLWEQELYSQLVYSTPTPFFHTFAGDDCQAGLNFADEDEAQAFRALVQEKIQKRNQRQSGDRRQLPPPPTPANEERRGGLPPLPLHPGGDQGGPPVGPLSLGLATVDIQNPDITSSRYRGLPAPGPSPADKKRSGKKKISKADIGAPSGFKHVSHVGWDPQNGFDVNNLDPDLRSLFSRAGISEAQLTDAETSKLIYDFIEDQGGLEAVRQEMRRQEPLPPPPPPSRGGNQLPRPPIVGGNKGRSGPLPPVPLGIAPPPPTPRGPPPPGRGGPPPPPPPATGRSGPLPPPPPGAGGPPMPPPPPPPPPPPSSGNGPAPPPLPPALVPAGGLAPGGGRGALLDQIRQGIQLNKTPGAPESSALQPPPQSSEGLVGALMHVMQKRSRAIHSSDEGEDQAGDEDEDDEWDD
Sequence of UniProt O00214 (whole entry, looked up): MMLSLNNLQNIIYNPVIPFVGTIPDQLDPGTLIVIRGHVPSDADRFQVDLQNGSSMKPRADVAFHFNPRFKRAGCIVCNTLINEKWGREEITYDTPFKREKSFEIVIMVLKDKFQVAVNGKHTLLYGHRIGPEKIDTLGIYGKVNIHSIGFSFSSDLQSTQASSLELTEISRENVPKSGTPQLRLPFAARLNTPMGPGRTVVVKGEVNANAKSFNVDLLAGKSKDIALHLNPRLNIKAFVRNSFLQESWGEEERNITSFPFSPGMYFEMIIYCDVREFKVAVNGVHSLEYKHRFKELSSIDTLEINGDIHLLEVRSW
Sequence of UniProt P10145 (whole entry, looked up): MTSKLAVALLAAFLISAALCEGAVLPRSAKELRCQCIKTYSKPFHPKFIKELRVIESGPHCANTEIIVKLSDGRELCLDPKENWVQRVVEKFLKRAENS
Sequence of UniProt A0A109QYD3 (whole entry, unmodified, looked up): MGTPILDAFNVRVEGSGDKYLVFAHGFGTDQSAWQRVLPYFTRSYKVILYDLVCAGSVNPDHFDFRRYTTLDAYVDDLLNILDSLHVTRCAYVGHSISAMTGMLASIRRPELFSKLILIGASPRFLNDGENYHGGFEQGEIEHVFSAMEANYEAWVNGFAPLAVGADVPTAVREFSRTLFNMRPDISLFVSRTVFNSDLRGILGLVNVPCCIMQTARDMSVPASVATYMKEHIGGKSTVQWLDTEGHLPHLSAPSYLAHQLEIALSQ

| SMILES | target | test | system | conditions | Kd |
| --- | --- | --- | --- | --- | --- |
| c1ccc(-c2nn[nH]c2-c2ccccc2)cc1 | Troponin C, slow skeletal and cardiac muscles, with cTnI (TNNC1, Human, UniProt P63316, C35S/C84S/T53C) | slowing of Ca2+ dissociation, stopped-flow fluorescence | – | pH 7.0, 15 °C, IAANS-labelled chimera | 154 ± 23 µM |
| CC[C@H](C)[C@@H]1NC(=O)[C@H](C)NC(=O)[C@H](C)NC(=O)[C@H]([C@@H](C)O)NC(=O)[C@H](Cc2ccccc2)NC(=O)[C@@H]2CSSC[C@@H]3NC(=O)[C@H](C(C)C)NC(=O)[C@H](CCCCN)NC(=O)[C@H](CO)NC(=O)[C@H](CCCCN)NC(=O)[C@@H]4CSSC[C@H](NC(=O)[C@H](C)NC(=O)[C@H](CCC(=O)O)NC(=O)CNC(=O)[C@H](CSSC[C@H](NC(=O)CNC1=O)C(=O)N[C@@H](CO)C(=O)N4)NC(=O)[C@@H]1CCCN1C(=O)[C@H](Cc1ccccc1)NC(=O)CNC(=O)[C@H](CC(N)=O)NC(=O)[C@H](CCCCN)NC(=O)[C@H](Cc1ccc(O)cc1)NC3=O)C(=O)N[C@@H](C(C)C)C(=O)N[C@@H](Cc1ccc(O)cc1)C(=O)N[C@@H](CC(C)C)C(=O)N1CCC[C@H]1C(=O)N2 | POPC/POPE lipid membrane | membrane binding, surface plasmon resonance | POPC/POPE 80:20 vesicles | pH 7.4 | 8.73 ± 0.5 µM |
| C=CC(=O)N1CCCC(n2c(=O)c3ncccc3n(Cc3ccc(Oc4ccccc4)cc3)c2=O)C1 (stereo not drawn) | WAS (Homo sapiens, UniProt P42768) | binding, SPR | – | – | 110 µM |
| CC[C@H](C)[C@H](NC(=O)[C@H](Cc1ccc(O)c(I)c1)NC(=O)[C@@H](NC(=O)[C@H](CCCNC(=N)N)NC(=O)CNC)C(C)C)C(=O)N[C@@H](Cc1c[nH]cn1)C(=O)N1CCC[C@H]1C(=O)N[C@H](C)C(=O)O | angiotensin II receptor type 1, rat | binding, saturation radioligand binding | female rat, liver membranes | – | 0.00517 µM |
| CNCCNC(=O)CN1C(=O)Cc2c([nH]c3ccc(Br)cc23)-c2ccc(Cl)cc21 | Trypanothione synthetase (Leishmania infantum, UniProt A4I2Z3) | isothermal titration calorimetry | – | 28 °C, apo enzyme | 6.5 µM |
| Nc1nc2c(ncn2[C@H]2C[C@H](O)[C@@H](COP(=O)(O)OP(=O)(O)[C@@H](Cl)P(=O)(O)O)O2)c(=O)[nH]1 | POLB | substrate, quench-flow kinetics | – | pH 8.0, 37 °C, incorporation opposite C in gapped DNA | 11 ± 1 µM |
| Nc1nc2c(ncn2C2CC(O)C(COP(=O)(O)OP(=O)(O)C(Br)P(=O)(O)O)O2)c(=O)[nH]1 (mixture of isomers) | POLB | nucleotide binding, substrate, single turnover kinetics | – | 37 °C, dG misincorporation opposite A | 205 ± 79 µM |
| Cc1cc2c(Nc3ccc(O)cc3)ncnc2s1 | TRAF4, TRAF-C domain (Homo sapiens, UniProt Q9BUZ4) | binding | – | pH 7.4, 25 °C, 5% DMSO-d6 | 140 µM |
| CSCC[C@H](NC(=O)[C@H](CO)NC(=O)[C@H](CCCNC(=N)N)NC(=O)[C@H](CCCCN)NC(=O)[C@H](CO)NC(=O)[C@H](CCCCN)NC(=O)[C@H](CCCCN)NC(=O)CNC(=O)[C@H](CCCCN)NC(=O)[C@H](CCCCN)NC(=O)[C@H](CC(C)C)NC(=O)[C@H](CCCNC(=N)N)NC(=O)[C@H](CCCNC(=N)N)NC(=O)[C@H](C)N)C(=O)N[C@@H](CC(N)=O)C(=O)N[C@@H](CC(=O)O)C(=O)N1CCC[C@H]1C(=O)N[C@@H](Cc1ccc(O)cc1)C(=O)O | Moesin, FERM domain (Homo sapiens, UniProt P26038) | binding, Trp fluorescence titration | – | pH 7.4, room temperature, FERM domain | 0.196 ± 0.015 µM |
| CC[C@H](C)[C@@H]1NC(=O)[C@H](C)NC(=O)[C@H](C)NC(=O)[C@H]([C@@H](C)O)NC(=O)[C@H](Cc2ccccc2)NC(=O)[C@@H]2CSSC[C@@H]3NC(=O)[C@H](C(C)C)NC(=O)[C@H](CCCCN)NC(=O)[C@H](CO)NC(=O)[C@H](CCCCN)NC(=O)[C@@H]4CSSC[C@H](NC(=O)[C@H](CO)NC(=O)[C@H](CCC(=O)O)NC(=O)CNC(=O)[C@H](CSSC[C@H](NC(=O)CNC1=O)C(=O)N[C@@H](CO)C(=O)N4)NC(=O)[C@@H]1CCCN1C(=O)[C@H](C)NC(=O)CNC(=O)[C@H](CC(N)=O)NC(=O)[C@H](CCCCN)NC(=O)[C@H](Cc1ccc(O)cc1)NC3=O)C(=O)N[C@@H](C(C)C)C(=O)N[C@@H](Cc1ccc(O)cc1)C(=O)N[C@@H](CC(C)C)C(=O)N1CCC[C@H]1C(=O)N2 | POPC/POPE lipid membrane | membrane binding, surface plasmon resonance | POPC/POPE 80:20 vesicles | pH 7.4 | 13.1 ± 0.88 µM |
| COc1ccc(CNc2nc3c(c(=O)[nH]2)[n+](C)cn3C2OC(COP(=O)(O)OP(=O)([O-])OP(=O)(O)OCC3OC(n4cnc5c(=O)[nH]c(N)nc54)C(O)C3O)C(O)C2O)cc1 (stereo not drawn) | Eif4e | differential scanning fluorimetry | – | – | 6.26 µM |
| C[C@H](N)C(=O)N[C@@H](CCCNC(=N)N)C(=O)N[C@H](C(=O)N[C@@H](CCCC[N+](C)(C)C)C(=O)N[C@@H](CCC(N)=O)C(=O)N[C@H](C(=O)N[C@@H](C)C(=O)N[C@@H](CCCNC(=N)N)C(=O)N[C@@H](CCCCN)C(=O)N[C@@H](CO)C(=O)N[C@H](C(=O)NCC(=O)NCC(=O)N[C@@H](CCCCN)C(=O)N[C@@H](C)C(=O)O)[C@@H](C)O)[C@@H](C)O)[C@@H](C)O | DNMT3A (Homo sapiens, UniProt Q9Y6K1) | binding, ITC | – | – | 35.6 µM |
| Cc1cn(C2CC(O)C(COP(=O)(O)OP(=O)(O)C(F)(Cl)P(=O)(O)O)O2)c(=O)[nH]c1=O (mixture of isomers) | POLB | dNTP binding, substrate, single-turnover kinetics | single-nucleotide gapped DNA | 37 °C, wild type, correct incorporation, with: dTTP opposite template A | 27.5 ± 6.1 µM |
| N[C@H]1[C@H](O[C@H]2[C@H](O)[C@@H](N)[C@H](O[C@H]3[C@H](O)[C@@H](N)[C@H](O[C@H]4[C@H](O)[C@@H](N)[C@H](O[C@H]5[C@H](O)[C@@H](N)C(O)O[C@@H]5CO)O[C@@H]4CO)O[C@@H]3CO)O[C@@H]2CO)O[C@H](CO)[C@@H](O)[C@@H]1O (stereo partly drawn) | Serine/threonine receptor-like kinase NFP, ectodomain (NFP, Medicago truncatula, UniProt Q0GXS4) | bio-layer interferometry | – | 100 to 1.56 µM, immobilized biotin conjugate | no binding |
| CC1=C[C@H](O/C=C2/C(=O)O[C@@H]3c4ccccc4C[C@H]23)OC1=O (single isomer, unassigned) | RMS3 (Lathyrus oleraceus, UniProt A0A109QYD3, S96C) | binding, fluorescence | – | – | 15.7 µM |
| OC[C@H]1Oc2c(Cc3ccccc3)c(Cc3ccccc3)cc3c2[C@@H](OC3)[C@H]1O | Galectin-8 (LGALS8, Homo sapiens, UniProt O00214) | cell-free assay, FP | – | – | 1500 µM |
| Nc1nc2c(ncn2[C@H]2C[C@H](O)[C@@H](COP(=O)(O)OP(=O)(O)C(Cl)(Cl)P(=O)(O)O)O2)c(=O)[nH]1 | POLB | nucleotide binding, substrate, single turnover kinetics | – | 37 °C, dG misincorporation opposite A | 1400 ± 482 µM |
| CC(=O)N[C@H]1[C@H](O[C@H]2[C@H](OS(=O)(=O)O)[C@@H](OS(=O)(=O)O)[C@H](O[C@H]3[C@H](OS(=O)(=O)O)[C@@H](COS(=O)(=O)O)OC[C@@H]3NC(C)=O)O[C@@H]2C(=O)O)O[C@H](COS(=O)(=O)O)[C@@H](OS(=O)(=O)O)[C@@H]1O[C@@H]1O[C@H](C(=O)O)[C@@H](OS(=O)(=O)O)[C@H](OS(=O)(=O)O)[C@H]1OS(=O)(=O)O | Interleukin-8 (CXCL8, Homo sapiens, UniProt P10145) | ligand displacement, FP | – | – | 6.5 µM |
| C[n+]1cn([C@@H]2O[C@H](COP(=O)([S-])OP(=O)(O)OP(=O)(O)OC[C@H]3O[C@@H](n4cnc5c(NCCCCCCN)ncnc54)[C@H](O)[C@@H]3O)[C@@H](O)[C@H]2O)c2nc(N)nc(O)c21 (mixture of isomers) | Eif4e | cap analogue binding, pyrene fluorescence competition | – | 20 °C | 0.433 µM and 0.43 µM |
| NS(=O)(=O)c1c(F)c(F)c(SCCO)c(NC(c2ccccc2)C(O)c2ccccc2)c1F (stereo not drawn) | CA2 (Homo sapiens, UniProt P00918, A65S/F130A/I91T/L203N/N67K/V134S) | – | – | pH 7 | 0.046 µM |
| CC[C@H](C)[C@H](NC(=O)[C@H](CC(C)C)NC(=O)[C@H](CCCNC(=N)N)NC(=O)c1ccc(CN2CCN(C)CC2)cc1)C(=O)N[C@@H](Cc1ccccc1)C(N)=O | Cyclin-A2 (CCNA2, Homo sapiens, UniProt P20248) | binding, tryptophan fluorescence titration | – | co-expressed DnaK-DnaJ-GrpE/GroES-GroEL | 5.28 ± 0.395 µM |

For quick reference, copied from above:
| SMILES | target | test | system | conditions | Kd |
| --- | --- | --- | --- | --- | --- |
| CNCCNC(=O)CN1C(=O)Cc2c([nH]c3ccc(Br)cc23)-c2ccc(Cl)cc21 | Trypanothione synthetase (Leishmania infantum, UniProt A4I2Z3) | isothermal titration calorimetry | – | 28 °C, apo enzyme | 6.5 µM |
| CC[C@H](C)[C@@H]1NC(=O)[C@H](C)NC(=O)[C@H](C)NC(=O)[C@H]([C@@H](C)O)NC(=O)[C@H](Cc2ccccc2)NC(=O)[C@@H]2CSSC[C@@H]3NC(=O)[C@H](C(C)C)NC(=O)[C@H](CCCCN)NC(=O)[C@H](CO)NC(=O)[C@H](CCCCN)NC(=O)[C@@H]4CSSC[C@H](NC(=O)[C@H](CO)NC(=O)[C@H](CCC(=O)O)NC(=O)CNC(=O)[C@H](CSSC[C@H](NC(=O)CNC1=O)C(=O)N[C@@H](CO)C(=O)N4)NC(=O)[C@@H]1CCCN1C(=O)[C@H](C)NC(=O)CNC(=O)[C@H](CC(N)=O)NC(=O)[C@H](CCCCN)NC(=O)[C@H](Cc1ccc(O)cc1)NC3=O)C(=O)N[C@@H](C(C)C)C(=O)N[C@@H](Cc1ccc(O)cc1)C(=O)N[C@@H](CC(C)C)C(=O)N1CCC[C@H]1C(=O)N2 | POPC/POPE lipid membrane | membrane binding, surface plasmon resonance | POPC/POPE 80:20 vesicles | pH 7.4 | 13.1 ± 0.88 µM |
| N[C@H]1[C@H](O[C@H]2[C@H](O)[C@@H](N)[C@H](O[C@H]3[C@H](O)[C@@H](N)[C@H](O[C@H]4[C@H](O)[C@@H](N)[C@H](O[C@H]5[C@H](O)[C@@H](N)C(O)O[C@@H]5CO)O[C@@H]4CO)O[C@@H]3CO)O[C@@H]2CO)O[C@H](CO)[C@@H](O)[C@@H]1O (stereo partly drawn) | Serine/threonine receptor-like kinase NFP, ectodomain (NFP, Medicago truncatula, UniProt Q0GXS4) | bio-layer interferometry | – | 100 to 1.56 µM, immobilized biotin conjugate | no binding |
